Published values gathered from unrelated publications.
± marks the error that the study gave.
PPIA: Peptidyl-prolyl cis-trans isomerase A (PPIA, Homo sapiens, UniProt P62937)
BCL2L1: Bcl-2-like protein 1 (BCL2L1, Homo sapiens, UniProt Q07817)
LGALS3 R144S: Galectin-3 (LGALS3, Homo sapiens, UniProt P17931, R144S)

C[C@@H]1O[C@@H](O[C@H]2[C@H](O[C@H]3[C@H](O)[C@@H](O)C(O)O[C@@H]3CO)O[C@H](CO)[C@H](O)[C@@H]2O[C@H]2O[C@H](CO)[C@H](O)[C@H](O)[C@H]2O)[C@@H](O)[C@H](O)[C@@H]1O (stereo partly drawn)  Kd (CD209 antigen (CD209, Homo sapiens, UniProt Q9NNX6); binding, NMR): 2300 µM
C1=[N+]2CCC[N+]3=Cc4ccc5[n]4[Au-]23[n]2c1ccc2-c1nc2ccccc2nc1-5.F[P-](F)(F)(F)(F)F  Kd (20-bp DNA duplex; SPR; pH 7.4, 37 °C): 2.8 µM
CC1CC/C(=N\Nc2nc3[nH]ncc3c(=O)[nH]2)c2ccccc21 (stereo not drawn)  Kd (BCKDK (Homo sapiens, UniProt O14874)): 3.9 µM
CC(=O)N[C@H]1[C@H](O[C@H]2[C@H](OS(=O)(=O)O)[C@@H](OS(=O)(=O)O)[C@H](O[C@H]3[C@H](OS(=O)(=O)O)[C@@H](COS(=O)(=O)O)OC[C@@H]3NC(C)=O)O[C@@H]2C(=O)O)O[C@H](COS(=O)(=O)O)[C@@H](OS(=O)(=O)O)[C@@H]1O[C@@H]1O[C@H](C(=O)O)[C@@H](OS(=O)(=O)O)[C@H](OS(=O)(=O)O)[C@H]1OS(=O)(=O)O  Kd (Sclerostin (SOST, Homo sapiens, UniProt Q9BQB4); ligand displacement, FP): 27.8 µM
O=[N+]([O-])c1cc(Br)cc([N+](=O)[O-])c1NS(=O)(=O)c1ccc(Br)cc1  Kd (PYR1 (Arabidopsis thaliana, UniProt O49686); binding, ITC): 2.34 µM
Cc1ccc(-c2cc(C(=O)Nc3ccc(S(=O)(=O)Nc4ncccn4)cc3)c3ccccc3n2)c(C)c1  Kd (PPIA; binding, SPR; pH 7.4): 9.33 µM
Cc1ccc(C(=O)Nc2ccc(S(=O)(=O)O)c3cccc(S(=O)(=O)O)c23)cc1NC(=O)c1cccc(N)c1  Kd (E3 ubiquitin-protein ligase XIAP, BIR1 domain (XIAP, Homo sapiens, UniProt P98170); microscale thermophoresis; 24 °C): 553 ± 140 µM
CC[C@H](C)[C@H](NC(=O)[C@H](CCC(=O)O)NC(=O)[C@H](CCCNC(=N)N)NC(=O)[C@H](C)NC(=O)[C@H](Cc1c[nH]c2ccccc12)NC(=O)[C@H](CCC(N)=O)NC(=O)[C@H](CCC(=O)O)NC(=O)[C@H](CCC(=O)O)NC(C)=O)C(=O)NCC(=O)N[C@@H](C)C(=O)N[C@@H](CCC(N)=O)C(=O)N[C@@H](CC(C)C)C(=O)N[C@@H](CC(=O)O)C(=O)N[C@@H](CCCNC(=N)N)C(=O)N[C@@H](CCSC)C(=O)N[C@@H](C)C(=O)N[C@@H](CC(=O)O)C(=O)N[C@@H](CC(=O)O)C(=O)N[C@@H](CC(C)C)C(=O)N[C@@H](CC(N)=O)C(=O)N[C@@H](C)C(=O)N[C@@H](CCC(N)=O)C(=O)N[C@@H](Cc1ccc(O)cc1)C(=O)N[C@@H](CCC(=O)O)C(=O)N[C@@H](CCCNC(=N)N)C(=O)N[C@@H](CCCNC(=N)N)C(=O)N[C@@H](CCCNC(=N)N)C(=O)N[C@@H](CCC(N)=O)C(N)=O  Kd (BCL2L1; binding, flow cytometry; pH 8): 0.06 µM
CC(C)C1=CC23CCC4C(C)(C(=O)O)CCCC4(C)C2CC1C1C(=O)OC(=O)C13 (stereo not drawn)  Kd (Replication protein A 70 kDa DNA-binding subunit, DBD-F (RPA1, Homo sapiens, UniProt P27694); fluorescence anisotropy competition; 25 °C): 103 µM
COc1c(F)c(F)c(C(=O)N[C@H]2[C@@H](O)[C@@H](CO)O[C@@H](S[C@@H]3O[C@H](CO)[C@H](O)[C@H](NC(=O)c4c(F)c(F)c(OC)c(F)c4F)[C@H]3O)[C@@H]2O)c(F)c1F  Kd (LGALS3 R144S; cell-free assay, FP): 1.8 µM
CCN(CC)C(=O)C1CCCN(C(=O)Nc2ccc3nc(-c4ccco4)c(-c4ccco4)nc3c2)C1 (stereo not drawn)  Kd (PPIA; binding, SPR): 7.09 µM
O=C(O)Cc1c[nH]c2ccccc12  Kd (PIN8 (Arabidopsis thaliana, UniProt Q9LFP6); cell-free assay): 40 µM
CCCc1cc2c3c(c1CCC)O[C@H](CO)[C@H](O)[C@@H]3OC2  Kd (Galectin-4, C-terminal domain (LGALS4, Homo sapiens, UniProt P56470); binding, competitive fluorescence polarization; 20 °C): > 3000 µM
O=C(N[C@@H](Cn1ccnc1)c1ccc(F)cc1F)c1ccc(-c2nnc(-c3ccccc3)o2)cc1  Kd (CYP51 (Trypanosoma cruzi, UniProt Q7Z1V1); binding, absorbance): 0.02 µM
CN(C)c1ccc2c(-c3ccc(C(=O)NCCCC[C@@H](NC(=O)[C@@H](CCCNC(=N)N)NC(=O)[C@@H](CCCNC(=N)N)NC(=O)[C@@H](CCCNC(=N)N)NC(=O)[C@@H](CCCNC(=N)N)NC(=O)[C@@H](CCCNC(=N)N)NC(=O)[C@@H](CCCNC(=N)N)NC(=O)CCCCCNC(=O)[C@@H](CCCNC(=N)N)NC(=O)CCCCCNC(=O)c4ccc(-c5ccnc(N)n5)s4)C(N)=O)cc3C(=O)[O-])c3ccc(=[N+](C)C)cc-3oc2c1  Kd (cGMP-dependent protein kinase 1, isoform alpha (PRKG1, Homo sapiens, UniProt Q13976); binding, fluorescence anisotropy; no cGMP, together with: 10 mM magnesium acetate): 0.00773 µM
COc1c(F)c(F)c(C(=O)N[C@H]2[C@@H](O)[C@@H](CO)O[C@@H](S[C@@H]3O[C@H](CO)[C@H](O)[C@H](NC(=O)c4c(F)c(F)c(OC)c(F)c4F)[C@H]3OS(=O)(=O)O)[C@@H]2O)c(F)c1F  Kd (LGALS3 R144S; cell-free assay, FP): 2.9 µM
Nc1ccccc1NC(=O)CCCCCC(=O)Nc1cccc(C(F)(F)F)c1  Kd (Myocyte-specific enhancer factor 2A, residues 1-95 (MEF2A, Homo sapiens, UniProt Q02078); binding, 19F NMR titration; pH 7.66, 25 °C, HDAC-binding groove, no DNA): ~0.5 µM
Cc1ccc(Oc2nc3cc(-c4ccc5c(ccn5C)c4)c(Cl)cc3[nH]2)cc1C(=O)O  Kd (PRKAB2/PRKAA1, gamma1; phosphorylated (Homo sapiens, UniProt O43741+Q13131); binding, circular dichroism titration; α1β2γ1 complex): 1.18 µM
CC[C@H](C)[C@H](NC(=O)[C@H](CCCNC(=N)N)NC(=O)[C@H](CCCNC(=N)N)NC(=O)[C@H](Cc1ccccc1)NC(=O)[C@H](CCC(N)=O)NC(=O)[C@H](C)NC(=O)CNC(=O)[C@@H](NC(=O)[C@H](CCC(=O)O)NC(=O)[C@H](CCCNC(=N)N)NC(=O)[C@H](C)NC(=O)[C@H](Cc1c[nH]c2ccccc12)NC(=O)[C@H](CCC(N)=O)NC(=O)[C@H](CCC(=O)O)NC(=O)[C@H](CCC(=O)O)NC(C)=O)C(C)C)C(=O)N[C@@H](C)C(=O)N[C@@H](CC(=O)O)C(=O)N[C@@H](CC(=O)O)C(=O)N[C@H](C(=O)N[C@@H](CC(N)=O)C(=O)N[C@@H](C)C(=O)N[C@@H](CCC(N)=O)C(=O)N[C@@H](Cc1ccc(O)cc1)C(=O)N[C@@H](CCC(=O)O)C(=O)N[C@@H](CCCNC(=N)N)C(=O)N[C@@H](CCCNC(=N)N)C(=O)N[C@@H](CCCNC(=N)N)C(=O)N[C@@H](CCC(N)=O)C(N)=O)[C@@H](C)CC  Kd (BCL2L1; binding, flow cytometry; pH 8): 0.00035 µM
Cc1noc(NS(=O)(=O)c2ccc(NC(=O)c3cc(-c4ccc5ccccc5c4)nc4ccccc34)cc2)c1C  Kd (PPIA; binding, SPR; pH 7.4): 10.1 µM
O=P(O)(O)O[C@@H]1[C@@H](O)[C@H](O)[C@H](O)[C@H](O)[C@H]1OP(=O)(O)O  Kd (Inositol 1,4,5-trisphosphate-gated calcium channel ITPR1, N-terminal region (Itpr1, Rattus norvegicus, UniProt P29994, del318-332/R504Q); [3H]IP3 competition binding; N-terminal fragment R504Q): 1.25 µM
NCCCCCO[C@H]1O[C@H](CO[C@H]2O[C@H](CO[C@H]3O[C@H](CO)[C@@H](O)[C@H](O)[C@@H]3O[C@H]3O[C@H](CO)[C@@H](O)[C@H](O)[C@@H]3O)[C@@H](O)[C@H](O[C@H]3O[C@H](CO)[C@@H](O)[C@H](O)[C@@H]3O[C@H]3O[C@H](CO)[C@@H](O)[C@H](O)[C@@H]3O)[C@@H]2O)[C@@H](O)[C@H](O[C@H]2O[C@H](CO)[C@@H](O)[C@H](O)[C@@H]2O[C@H]2O[C@H](CO)[C@@H](O)[C@H](O)[C@@H]2O[C@H]2O[C@H](CO)[C@@H](O)[C@H](O)[C@@H]2O)[C@@H]1O  Kd (Griffithsin (Griffithsia sp., UniProt P84801); binding, isothermal titration calorimetry): 0.58 ± 0.02 µM
CC[C@H](C)[C@H](NC(=O)[C@@H](NC(=O)[C@H](Cc1ccc(O)cc1)NC(=O)[C@H](Cc1ccc(O)cc1)NC(=O)[C@H](CC(N)=O)NC(=O)[C@H](CCC(=O)O)NC(=O)[C@H](Cc1ccccc1)NC(=O)[C@@H](NC(=O)[C@H](CO)NC(=O)[C@H](CCC(=O)O)NC(=O)[C@H](CCCCN)NC(=O)[C@H](Cc1ccccc1)NC(=O)[C@@H](N)CCCCN)C(C)C)C(C)C)C(=O)N[C@@H](Cc1ccc(O)cc1)C(=O)N[C@@H](CO)C(=O)N[C@@H](CO)C(=O)N[C@@H](CCSC)C(=O)N[C@@H](CC(C)C)C(=O)N[C@@H](Cc1ccc(O)cc1)C(=O)N[C@@H](CCCNC(=N)N)C(N)=O  Kd (Fibroblast growth factor 14 (Homo sapiens, UniProt Q92915); binding): 1 µM
O=C(O)C1OC(OC2C(C(=O)O)OC(OC3C(C(=O)O)OC(OC4C(C(=O)O)OC(OC5C(C(=O)O)OC(OC6C(C(=O)O)OC(O)C(O)C6O)C(O)C5O)C(O)C4O)C(O)C3O)C(O)C2O)C(O)C(O)C1O (stereo not drawn)  Kd (Beta-lactoglobulin (LGB, Bos taurus, UniProt P02754, A134V/G80D); STD NMR titration; pH 2.65, 37 °C, together with: protein 20 µM): 147 ± 40 µM
COC(=O)c1ccc(CNC(=O)[C@@H]2C[C@@H](O)CN2C(=O)Cc2ccccc2)cc1  Kd (von Hippel-Lindau disease tumor suppressor, with Elongin B/C (VHL, Homo sapiens, UniProt P40337); isothermal titration calorimetry; 25 °C): 280 ± 10 µM
CCc1nc2cc3ccccc3cc2cc1C(=O)N1CCC[C@H]1C(=O)N[C@@H](C/C=C/C[C@H](NC(=O)[C@@H]1CCCN1C(=O)c1cc2cc3ccccc3cc2nc1CC)C(=O)N[C@@H](CCCCN)C(=O)NCCCN)C(=O)N[C@@H](CCCCN)C(=O)NCCCN  Kd ((CUG)10 RNA; SPR; pH 7.4): 0.068 µM
CC[C@H](C)[C@H](NC(=O)[C@H](Cc1c[nH]c2ccccc12)NC(=O)[C@@H](NC(=O)[C@H](CCC(=O)O)NC(=O)[C@@H]1CCCN1C(=O)[C@H](CCCNC(=N)N)NC(C)=O)[C@@H](C)CC)C(=O)N[C@@H](C)C(=O)N[C@@H](CCC(N)=O)C(=O)N[C@@H](CCC(=O)O)C(=O)N[C@@H](CC(C)C)C(=O)N[C@@H](CCCNC(=N)N)C(=O)N[C@@H](CCCNC(=N)N)C(=O)N[C@@H](C)C(=O)NCC(=O)N[C@@H](CCCCN)C(=O)N[C@H](C(=O)N[C@@H](CC(C)C)C(=O)N[C@@H](CC(N)=O)C(=O)N[C@@H](C)C(=O)N[C@@H](Cc1ccc(O)cc1)C(=O)N[C@@H](Cc1ccc(O)cc1)C(=O)N[C@@H](C)C(=O)N[C@@H](CCCNC(=N)N)C(N)=O)C(C)C  Kd (BCL2L1; binding, fluorescence polarization; pH 7.8, 37 °C): > 1 µM

Repeated from above:
Cc1ccc(Oc2nc3cc(-c4ccc5c(ccn5C)c4)c(Cl)cc3[nH]2)cc1C(=O)O  Kd (PRKAB2/PRKAA1, gamma1; phosphorylated (Homo sapiens, UniProt O43741+Q13131); binding, circular dichroism titration; α1β2γ1 complex): 1.18 µM
CC[C@H](C)[C@H](NC(=O)[C@H](CCCNC(=N)N)NC(=O)[C@H](CCCNC(=N)N)NC(=O)[C@H](Cc1ccccc1)NC(=O)[C@H](CCC(N)=O)NC(=O)[C@H](C)NC(=O)CNC(=O)[C@@H](NC(=O)[C@H](CCC(=O)O)NC(=O)[C@H](CCCNC(=N)N)NC(=O)[C@H](C)NC(=O)[C@H](Cc1c[nH]c2ccccc12)NC(=O)[C@H](CCC(N)=O)NC(=O)[C@H](CCC(=O)O)NC(=O)[C@H](CCC(=O)O)NC(C)=O)C(C)C)C(=O)N[C@@H](C)C(=O)N[C@@H](CC(=O)O)C(=O)N[C@@H](CC(=O)O)C(=O)N[C@H](C(=O)N[C@@H](CC(N)=O)C(=O)N[C@@H](C)C(=O)N[C@@H](CCC(N)=O)C(=O)N[C@@H](Cc1ccc(O)cc1)C(=O)N[C@@H](CCC(=O)O)C(=O)N[C@@H](CCCNC(=N)N)C(=O)N[C@@H](CCCNC(=N)N)C(=O)N[C@@H](CCCNC(=N)N)C(=O)N[C@@H](CCC(N)=O)C(N)=O)[C@@H](C)CC  Kd (BCL2L1; binding, flow cytometry; pH 8): 0.00035 µM
Cc1noc(NS(=O)(=O)c2ccc(NC(=O)c3cc(-c4ccc5ccccc5c4)nc4ccccc34)cc2)c1C  Kd (PPIA; binding, SPR; pH 7.4): 10.1 µM
